Assay results gathered from unrelated publications.
± marks the error that the study gave.

`CC[C@H](C)[C@H](NC(=O)[C@H](Cc1c[nH]cn1)NC(=O)[C@@H]1CSSC[C@H](NC(=O)[C@H](Cc2c[nH]cn2)NC(=O)[C@H](Cc2ccccc2)NC(=O)CCC(C(=O)O)N2CCN(CC(=O)O)CCN(CC(=O)O)CC2)C(=O)N2C[C@H](O)C[C@H]2C(=O)N[C@@H](Cc2ccc(O)c(Cl)c2)C(=O)N[C@@H](CC(=O)O)C(=O)N[C@@H](CC(C)C)C(=O)N1)C(=O)N[C@@H](CC(C)C)C(=O)NCc1ccc(CNC(=O)CCC(C(=O)O)N2CCN(CC(=O)O)CCN(CC(=O)O)CC2)cc1` (stereo partly shown) [gallium-68 labelled]: “thrombus to contralateral ratio” 3 to 4 (ex vivo gamma counting; rat, carotid crush thrombosis model, carotid artery; baseline: thrombosed over contralateral vessel).
`Cc1ncc([N+](=O)[O-])n1CCOCc1nnc(SCC(=O)c2ccc([N+](=O)[O-])cc2)o1` has a DPPH scavenging of 65.2 ± 0.15% (100 µg/mL, 45 min).
`O=c1c(OCc2ccccc2)c(-c2ccc(Cl)cc2)oc2ccccc12`: “serum alkaline phosphatase” 184 ± 4.09 IU (diabetic rat; 5 mg/kg, p-nitrophenyl β-glucoside induced).
Under “reduction of NAFLD activity score”, `CC[C@H]1[C@@H](O)[C@@H]2[C@H](CC[C@]3(C)[C@@H]([C@H](C)CCOS(=O)(=O)[O-])CC[C@@H]23)[C@@]2(C)CC[C@@H](O)C[C@@H]12.[Na+]` is recorded as about 3 points (ob/ob NASH mouse, liver; 10 mg/kg, 8 weeks; baseline: baseline, direction not given).
`O=c1c(OCc2ccccc2)c(-c2cccc([N+](=O)[O-])c2)oc2ccccc12`: “serum LDL cholesterol” 122 ± 3.31 mg/dL (diabetic rat; 7.5 mg/kg, 28 days, p-nitrophenyl β-glucoside induced).
`CCCC[C@H](NC(=O)[C@@H](NC(=O)[C@H](CC(=O)O)NC(=O)[C@H](CCC(N)=O)NC(=O)[C@H](CC(C)C)NC(=O)[C@H](CC(C)C)NC(=O)[C@H](CCCN)NC(=O)[C@H](CCCNC(=N)N)NC(=O)[C@H](C)NC(=O)[C@H](CO)NC(=O)[C@H](CC(C)C)NC(=O)[C@H](CCC(N)=O)NC(=O)[C@H](CC)NC(=O)[C@H](CC(C)C)NC(=O)[C@@H](NC(=O)[C@H](CCCN)NC(=O)[C@H](CCCNC(=N)N)NC(=O)[C@H](Cc1ccc(O)cc1)NC(=O)[C@H](CO)NC(=O)[C@H](CCC(N)=O)NC(=O)[C@@H](NC(=O)[C@H](Cc1ccccc1)NC(=O)[C@@H](NC(=O)[C@H](C)NC(=O)[C@H](CC(=O)O)NC(=O)[C@H](C)NC(=O)[C@H](Cc1ccc(O)cc1)NC)[C@@H](C)CC)[C@@H](C)O)C(C)C)[C@@H](C)CC)C(=O)N[C@@H](CC(=O)O)C(=O)N[C@@H](CCCNC(=N)N)C(=O)NC` — result for “serum GH level”: 21.3 ± 4.8 ng/mL (GH release, ELISA; male Sprague-Dawley rat, anaesthetised, serum; subcutaneous, 3 µg/kg, 0 min).
Under “duration of action”, `COc1ccc2c(c1OCc1ccccc1)C[C@@H](C(=O)O)N(c1nc3ccc(C#N)cc3o1)C2` is recorded as about 2 h (von Frey; rat, chronic constriction injury; oral, 30 and 60 mg/kg).
The pERK inhibition of `C=CC(=O)N1C[C@H](C)N(c2nc(OC[C@@]34CCCN3C[C@H](F)C4)nc3c(F)c(-c4ccc(F)c5sc(N)c(C#N)c45)c(C(F)(F)F)cc23)C[C@H]1C` is reported as 92% (mouse, MIA PaCa-2 Matrigel plug; 30 mg/kg single dose, 6 h).
For `CCCCCCCOC(=O)Cc1c(C)n(C(=O)c2ccc(Cl)cc2)c2ccc(OC)cc12`, “latency of nociceptive response” read 16.8 ± 1.2 s (hot plate test; BALB/c mice; 100 mg/kg, 90 min).
`COc1c2c(cc3oc(COC4OC(CO)C(O)C(O)C4O)cc(=O)c13)OC(C(C)(C)O)C2` (stereo not shown) — result for “ear edema weight increase”: 5.83 ± 0.23 mg (mouse, xylene ear edema; oral, 1 mg/kg).
For `COc1cc(C(=O)OCCCN2CCCN(CCCOC(=O)c3cc(OC)c(OC)c(OCc4ccc([N+](=O)[O-])cc4)c3)CC2)cc(OC)c1OC`, “formalin pain phase 2” read “decreased” (licking and flinching; mouse, formalin pain; intrathecal, 1 to 100 nmol).
`CCCC[C@H](NC(=O)[C@@H](NC(=O)[C@H](CC(=O)O)NC(=O)[C@H](CCC(N)=O)NC(=O)[C@H](CC(C)C)NC(=O)[C@H](CC(C)C)NC(=O)[C@H](CCCN)NC(=O)[C@H](CCCNC(=N)N)NC(=O)[C@H](C)NC(=O)[C@H](CO)NC(=O)[C@H](CC(C)C)NC(=O)[C@H](CCC(N)=O)NC(=O)[C@H](CC)NC(=O)[C@H](CC(C)C)NC(=O)[C@@H](NC(=O)[C@H](CCCN)NC(=O)[C@H](CCCNC(=N)N)NC(=O)[C@H](Cc1ccc(O)cc1)NC(=O)[C@H](CO)NC(=O)[C@H](CC(N)=O)NC(=O)[C@@H](NC(=O)[C@H](Cc1ccccc1)NC(=O)[C@@H](NC(=O)[C@H](C)NC(=O)[C@H](CC(=O)O)NC(=O)[C@@H](CC)NC(=O)CCc1ccc(O)cc1)[C@@H](C)CC)[C@@H](C)O)C(C)C)[C@@H](C)CC)C(=O)N[C@@H](CO)C(=O)N[C@@H](CCCNC(=N)N)C(=O)NCCCC(N)=O`: “serum GH level” 25.7 ± 6.3 ng/mL (GH release, ELISA; male rat, anaesthetised, serum; intravenous, 1 µg/kg, 0 min).
With `CN1CCC[C@]1(C)/C=C/S(=O)(=O)NC(=O)Nc1c2c(cc3c1CCC3)CCC2` the inhibition was over 90% (measured: IL-1β; human, whole blood ex vivo; oral, dose not given, single ascending dose, added: LPS and ATP).
Under “log2 fold change”, `C=C(c1cc(F)c(C(=O)O)c(F)c1)c1cc2c(cc1C)C(C)(C)CCC2(C)C` is recorded as 0.66 (RNA sequencing, measured: Ccl6 mRNA; rat, brain; dose not given, 24 h, single dose; baseline: vehicle).
`COc1cc(F)c([C@@H]2CNC(=O)[C@H]2NC(=O)Nc2ccccc2)c(F)c1`: “CD206+ of CD64+ macrophages” 30% (flow cytometry; mouse, myocardial infarction (LAD ligation), heart; 3 mg/kg, 72 h; baseline: vehicle).
`CCOP(=O)(CC(=O)Nc1ccc(S(=O)(=O)N(CC(N)=O)c2ccc(N(CC(N)=O)S(=O)(=O)c3ccc(OC)cc3)c3ccccc23)cc1)OCC` — result for protein level: “decreased” (western blot, measured: amyloid beta; APP/PS1 mice, hippocampus and frontal cortex; 40 mg/kg).
`CC(C)(O)c1ccc(N2Cc3c(ccnc3-c3ccc(F)cc3OCC(F)(F)F)C2=O)cc1` gave a glucosylsphingosine level of 61 ± 1% (Gaucher disease mouse model, brain; 30 mg/kg, 2 months once daily; baseline: vehicle).
For `COc1ccc2c(c1)c(CC(=O)OCOC(C)=O)c(C)n2C(=O)c1ccc(Cl)cc1`, the writhing count was 5.17 ± 1.33 (BALB/c mice, acetic acid writhing; intraperitoneal, 30 mg/kg, 20 min count).
The analgesic protection of `Cc1ccc(N(CCc2nnc(S)n2N)S(=O)(=O)c2ccc(C)cc2)cc1` is reported as 121% (tail flick, radiant heat; rat; 200 mg/kg).
Under “serum GH level”, `CCCC[C@H](NC(=O)[C@@H](NC(=O)[C@H](CC(=O)O)NC(=O)[C@H](CCC(N)=O)NC(=O)[C@H](CC(C)C)NC(=O)[C@H](CC(C)C)NC(=O)[C@H](CCCN)NC(=O)[C@H](CCCNC(=N)N)NC(=O)[C@H](C)NC(=O)[C@H](CO)NC(=O)[C@H](CC(C)C)NC(=O)[C@H](CCC(N)=O)NC(=O)[C@H](CC)NC(=O)[C@H](CC(C)C)NC(=O)[C@@H](NC(=O)[C@H](CCCN)NC(=O)[C@H](CCCNC(=N)N)NC(=O)[C@H](Cc1ccc(O)cc1)NC(=O)[C@H](CO)NC(=O)[C@H](CCC(N)=O)NC(=O)[C@@H](NC(=O)[C@H](Cc1ccccc1)NC(=O)[C@@H](NC(=O)[C@H](C)NC(=O)[C@H](CC(=O)O)NC(=O)[C@@H](C)NC(=O)[C@H](Cc1ccc(O)cc1)NC)[C@@H](C)CC)[C@@H](C)O)C(C)C)[C@@H](C)CC)C(=O)N[C@@H](CC(=O)O)C(=O)NCCCCNC(=N)N` is recorded as 46.1 ± 6.3 ng/mL (GH release, ELISA; male Sprague-Dawley rat, anaesthetised, serum; subcutaneous, 3 µg/kg, 0 min).
`CC1(CN)CCN(c2cnc(Sc3cccc(Cl)c3Cl)c(N)n2)CC1` — result for spleen index: “decreased” (imiquimod psoriasis mice; dose not given; baseline: model group).
`COc1ccc(-c2cc(COC3c4cc5c(cc4C(c4cc(OC)c(OC)c(OC)c4)C4C(=O)OCC34)OCO5)on2)cc1` (stereo not shown) gave an IC50 of 880 nM (tubulin polymerisation, inhibitor).

Excerpt of the above:
`O=c1c(OCc2ccccc2)c(-c2cccc([N+](=O)[O-])c2)oc2ccccc12`: “serum LDL cholesterol” 122 ± 3.31 mg/dL (diabetic rat; 7.5 mg/kg, 28 days, p-nitrophenyl β-glucoside induced).
`Cc1ncc([N+](=O)[O-])n1CCOCc1nnc(SCC(=O)c2ccc([N+](=O)[O-])cc2)o1` has a DPPH scavenging of 65.2 ± 0.15% (100 µg/mL, 45 min).
`COc1ccc(-c2cc(COC3c4cc5c(cc4C(c4cc(OC)c(OC)c(OC)c4)C4C(=O)OCC34)OCO5)on2)cc1` (stereo not shown) gave an IC50 of 880 nM (tubulin polymerisation, inhibitor).
